Experimental data gathered from unrelated publications.
Lines come from different studies, so protocols differ. Values joined by “and” are separate records of one study, mostly repeats; a detail may differ.

Compound | organism | assay | test system | setting | measurement | value
Nc1ccn(C[C@@H](CO)OCP(=O)(O)O)c(=O)n1 | human alphaherpesvirus 2 | virus-induced cytopathogenicity | HEL, G | – | EC50 | 1000 nM
COc1cc2c3c(c1OC)-c1ccccc1C[C@H]3N(C)CC2 | Toxoplasma gondii | parasite growth | HFF, bradyzoite, glutamine-induced | – | EC50 | 25000 nM
O=c1[nH]c(=O)n([C@H]2C[C@H](O)[C@@H](CO)O2)cc1/C=C/Br | human alphaherpesvirus 2 | – | HEL, strain G | – | EC50 | 96000 nM
COc1ccc([C@@]23Oc4cc(OC)cc(OC)c4[C@@]24N=C(C)N[C@@]4(O)[C@H](C(=O)N(C)OC)[C@H]3c2ccccc2)cc1 | Hepatitis E virus | viral replication | HepG2 HEV-3 replicon, genotype 3 | 48 h, racemate | EC50 | 1 nM
CC1(C)OB(c2ccc(NS(=O)(=O)c3cc(C(=O)Nc4ccc(F)c(F)c4)ccc3F)cc2)OC1(C)C | hepatitis B virus | viral replication, qPCR, item: positive-strand HBV DNA | HepDES19, genotype D | 3 days | EC50 | 4430 nM
COc1ccc(NC(=O)N2CCCCN3[C@H](CN(C)C)[C@H](c4ccc(C#Cc5ccccc5)cc4)[C@@H]3C2)cc1 | Toxoplasma gondii | bradyzoite growth | – | pH 8.2, alkaline-induced bradyzoites | EC50 | 220 nM
O=C(NCC1(c2nc(-c3ccccc3)cs2)CCOCC1)c1cccc(-c2noc(C(F)(F)F)n2)c1 | human coronavirus OC43 | virus-induced cell killing | MRC-5 | screen | maximum inhibition | 25.7%
CC1(C)OB(c2ccc(CNS(=O)(=O)c3cc(C(=O)Nc4cc(F)c(F)c(F)c4)ccc3F)cc2)OC1(C)C | hepatitis B virus | viral replication, qPCR, item: positive-strand HBV DNA | HepDES19, genotype D | 3 days | EC50 | 1300 nM
C[C@H]1CCC/C=C/[C@@H]2C[C@H](O)C[C@H]2[C@H](O)/C=C/C(=O)O1 | Toxoplasma gondii | parasite growth | HFF, bradyzoite, glutamine-induced | – | EC50 | 168 nM
COCC(=O)N1CCC[C@H](C(=O)NCc2nc(-c3ccc(C#N)cc3)cs2)C1 | Plasmodium falciparum | – | Dd2 | together with: WLW-vs fixed ratio 0.60:0.40 | EC50 | 7.5 nM and 5 nM
COC(=O)[C@@H]1[C@@H](c2ccccc2)[C@]2(c3ccc(OC)cc3)Oc3cc(OC)cc(OC)c3[C@@]23N=C(C)N[C@@]13O | Hepatitis E virus | viral replication | HepG2 HEV-3 replicon, genotype 3 | 24 h, racemate | EC50 | 2 nM
CC1(C)OB(c2cccc(CNS(=O)(=O)c3cc(C(=O)Nc4cc(F)c(F)c(F)c4)ccc3F)c2)OC1(C)C | hepatitis B virus | viral replication, strand-preferential qPCR, item: positive-strand HBV DNA | HepDES19 cells, genotype D | 3 days | EC50 | 1600 nM
CN1CC[C@@]2(C)c3cc(OC(=O)Nc4ccccc4)ccc3N(C)[C@@H]12 | Toxoplasma gondii | parasite growth | HFF, bradyzoite, glutamine-induced | – | EC50 | 2610 nM
O=C(Nc1cc(F)c(F)c(F)c1)c1ccc(F)c(S(=O)(=O)NCc2ccccc2B(O)O)c1 | hepatitis B virus | viral replication, qPCR, item: positive-strand HBV DNA | HepDES19, genotype D | 3 days | EC50 | > 5000 nM
Fc1ccc(C(OCCN2CCN(CCCc3ccccc3)CC2)c2ccc(F)cc2)cc1 | Toxoplasma gondii | parasite growth | HFF, bradyzoite, alkaline-induced | – | EC50 | 12900 nM
COc1ccc(C(=O)Nc2ccccc2C(=O)N[C@H](C(=O)N[C@H](CO)C(C)C)C(C)C)cc1 | human coronavirus OC43 | viral replication, plaque reduction | MRC-5 | 6 days | EC50 | > 50000 nM
C#Cc1cccc(Nc2ncnc3cc(OCCOC)c(OCCO)cc23)c1 | human coronavirus OC43 | virus-induced cell killing | MRC-5 | screen | maximum inhibition | 4.84%

Some of these lines once more:
Compound | organism | assay | test system | setting | measurement | value
Nc1ccn(C[C@@H](CO)OCP(=O)(O)O)c(=O)n1 | human alphaherpesvirus 2 | virus-induced cytopathogenicity | HEL, G | – | EC50 | 1000 nM
